Measured values from different studies.
Compare with care: the assays were run in different laboratories. Numbers after ± are the reported error.
Method: steady-state kinetics
B1: sacB S173A/S422A (Priestia megaterium, UniProt D5DC07); chain KGNDSKDFNNSYGISHITRDNMVKIPQQQNSDQFKVPAFDESTIKNIASAKGKNASGNTIDLDVWDSWPLQNADGTVATYHGYQIVFALAGDPKDSNDTSVYLFYKKAGDKSIDSWKNAGRVFKDSDKFVPNDPHLKNQTQEWAGSGTLTKDGKVRLFYTDYSGKQYGKQTLTTAQVNMSQPNDNTLKVDGVEDYKSIFDGDGKIYQTVQQFIDEGGYDTGDNHTLRDPHYIEDNGHKYLVFEANTGTEDGYQGEDSLYNRAYYGGNNPFFQSEKKKLLEGSNKEKASLANGALGIIELNDDYTLKKVMKPLITSNTVTDEIERANIFKKDGKWYLFTDSRGSKMTIDGIGQDDVYMLGYVSNTLTGKYKPLNDTGLVLHMDLDPNDKTFTYAHFAVPQTKGDNVVITSYMTNRGFYEDNHSTFAPSFLVNIDGSKTSVVKDRVLEQGQLTVDED
B2: GTPBP3 P257H (Homo sapiens, UniProt Q969Y2); chain TRRSSGAPAPGSGATIFALSSGQGRCGIAVIRTSGPASGHALRILTAPRDLPLARHASLRLLSDPRSGEPLDRALVLWFPGPQSFTGEDCVEFHVHGGPAVVSGVLQALGSVPGLRPAEAGEFTRRAFANGKLNLTEVEGLADLIHAETEAQRRQALRQLDGELGHLCRGWAETLTKALAHVEAYIDFGEDDNLEEGVLEQADIEVRALQVALGAHLRDARRGQRLRSGVHVVVTGHPNAGKSSLVNLLSRKPVSIVSPEPGTTRDVLETPVDLAGFPVLLSDTAGLREGVGPVEQEGVRRARERLEQADLILAMLDASDLASPSSCNFLATVVASVGAQSPSDSSQRLLLVLNKSDLLSPEGPGPGPDLPPHLLLSCLTGEGLDGLLEALRKELAAVCGDPSTDPPLLTRARHQHHLQGCLDALGHYKQSKDLALAAEALRVARGHLTRLTGGGGTEEILDIIFQDFCVGK
B3: ycjS (Escherichia coli, UniProt P77503); chain MKSAMTSSPLRVAIIGAGQVADKVHASYYCTRNDLELVAVCDSRLSQAQALAEKYGNASVWDDPQAMLLAVKPDVVSVCSPNRFHYEHTLMALEAGCHVMCEKPPAMTPEQAREMCDTARKLGKVLAYDFHHRFALDTQQLREQVTNGVLGEIYVTTARALRRCGVPGWGVFTNKELQGGGPLIDIGIHMLDAAMYVLGFPAVKSVNAHSFQKIGTQKSCGQFGEWDPATYSVEDSLFGTIEFHNGGILWLETSFALNIREQSIMNVSFCGDKAGATLFPAHIYTDNNGELMTLMQREIADDNRHLRSMEAFINHVQGKPVMIADAEQGYIIQQLVAALYQSAETGTRVEL
B4: TcA (Trypanosoma cruzi, UniProt Q4DRC4); chain MFIRLFAREEEGEKEGKICHMPREYEFAEKILFTEEEIRTRIKEVAKRIADDYKGKGLRPYVNPLVLISVLKGSFMFTADLCRALCDFNVPVRMEFICVSSYGEGLTSSGQVRMLLDTRHSIEGHHVLIVEDIVDTALTLNYLYHMYFTRRPASLKTVVLLDKREGRRVPFSADYVVANIPNAFVIGYGLDYDDTYRELRDIVVLRPEVYAEREAARQKKQRAIGSADTDRDAKREFHSKY
B5: PRODH2 157-515 (Homo sapiens, UniProt Q9UF12); chain YGQFVAGETAEEVKGCVQQLRTLSLRPLLAVPTEEEPDSAAKSGEAWYEGNLGAMLRCVDLSRGLLEPPSLAEASLMQLKVTALTSTRLCKELASWVRRPGASLELSPERLAEAMDSGQNLQVSCLNAEQNQHLRASLSRLHRVAQYARAQHVRLLVDAEYTSLNPALSLLVAALAVRWNSPGEGGPWVWNTYQACLKDTFERLGRDAEAAHRAGLAFGVKLVRGAYLDKERAVAQLHGMEDPTQPDYEATSQSYSRCLELMLTHVARHGPMCHLMVASHNEESVRQATKRMWELGIPLDGTVCFGQLLGMCDHVSLALGQAGYVVYKSIPYGSLEEVIPYLIRRAQENRSVLQGARRE
B6: HEM1 (Saccharomyces cerevisiae, UniProt P09950); chain AAAAANHSTQESGFDYEGLIDSELQKKRLDKSYRYFNNINRLAKEFPLAHRQREADKVTVWCSNDYLALSKHPEVLDAMHKTIDKYGCGAGGTRNIAGHNIPTLNLEAELATLHKKEGALVFSSCYVANDAVLSLLGQKMKDLVIFSDELNHASMIVGIKHANVKKHIFKHNDLNELEQLLQSYPKSVPKLIAFESVYSMAGSVADIEKICDLADKYGALTFLDEVHAVGLYGPHGAGVAEHCDFESHRASGIATPKTNDKGGAKTVMDRVDMITGTLGKSFGSVGGYVAASRKLIDWFRSFAPGFIFTTTLPPSVMAGATAAIRYQRCHIDLRTSQQKHTMYVKKAFHELGIPVIPNPSHIVPVLIGNADLAKQASDILINKHQIYVQAINFPTVARGTERLRITPTPGHTNDLSDILINAVDDVFNELQLPRVRDWESQGGLLGVGESGFVEESNLWTSSQLSLTNDDLNPNVRDPIVKQLEVSSGIKQ
B7: PRP43 (Saccharomyces cerevisiae, UniProt P53131); chain MGSKRRFSSEHPDPVETSIPEQAAEIAEELSKQHPLPSEEPLVHHDAGEFKGLQRHHTSAEEAQKLEDGKINPFTGREFTPKYVDILKIRRELPVHAQRDEFLKLYQNNQIMVFVGETGSGKTTQIPQFVLFDEMPHLENTQVACTQPRRVAAMSVAQRVAEEMDVKLGEEVGYSIRFENKTSNKTILKYMTDGMLLREAMEDHDLSRYSCIILDEAHERTLATDILMGLLKQVVKRRPDLKIIIMSATLDAEKFQRYFNDAPLLAVPGRTYPVELYYTPEFQRDYLDSAIRTVLQIHATEEAGDILLFLTGEDEIEDAVRKISLEGDQLVREEGCGPLSVYPLYGSLPPHQQQRIFEPAPESHNGRPGRKVVISTNIAETSLTIDGIVYVVDPGFSKQKVYNPRIRVESLLVSPISKASAQQRAGRAGRTRPGKCFRLYTEEAFQKELIEQSYPEILRSNLSSTVLELKKLGIDDLVHFDFMDPPAPETMMRALEELNYLACLDDEGNLTPLGRLASQFPLDPMLAVMLIGSFEFQCSQEILTIVAMLSVPNVFIRPTKDKKRADDAKNIFAHPDGDHITLLNVYHAFKSDEAYEYGIHKWCRDHYLNYRSLSAADNIRSQLERLMNRYNLELNTTDYESPKYFDNIRKALASGFFMQVAKKRSGAKGYITVKDNQDVLIHPSTVLGHDAEWVIYNEFVLTSKNYIRTVTSVRPEWLIEIAPAYYDLSNFQKGDVKLSLERIKEKVDRLNELKQGKNKKKSKHSKK
B8: NahK (Pseudomonas putida, UniProt Q1XGK3); chain MNRTLTREQVLALAEHIENAELNVHDIGKVTNDFPEMTFADAYDVQWEIRRRKEARGNKIVGLKMGLTSWAKMAQMGVETPIYGFLADYFSVPDGGVVDCSKLIHPKIEAEISVVTKAPLHGPGCHLGDVIAAIDYVIPTVEVIDSRYENFKFDLISVVADNASSTRFITGGRMASLEEVDLRTLGVVMEKNGEVVELGAGAAVLGHPLSSVAMLANLLAERGEHIPAGTFIMTGGITAAVPVAPGDNITVRYQGLGSVSARFI
B9: enzyme (Triticum aestivum, UniProt A0A6J4BJN3); chain MPATENAAGEAWDRRRELQAFDDTKAGVKGLVDAGVTALPPIFRHSPESLEGITSSNHDAAAIPTVDLSAARREDTVALVRRAAATVGFFQVVNHGVPAELMAGMLEAVRRFNEGPAEAKQAIYSRDQARKVRFASNFDLFSSAAANWRDTLFFHLAPDPAPSQDLPEAVRDVVTEYGKAVTKVALSVLELLSESLGLSSDHLRDMGCAENLNAVCQYYPPCPEPYLTWGTKRHTDPGFLTVLLQDGMGGLQVLVDRKTWVDVPPVPGAFIINIGDLLQLVSNDQFRSVEHRVLANKSKDTARVSVASFFNTDMERSTRLYGPITDGRNPPIYRSVTARDFIATFNRIGLDGRSLDHYRLDQDTPAHAVEGSE
B10: SULT1A1 I89A (Homo sapiens, UniProt P50225); chain MELIQDTSRPPLEYVKGVPLIKYFAEALGPLQSFQARPDDLLISTYPKSGTTWVSQILDMIYQGGDLEKCHRAPIFMRVPFLEFKAPGAPSGMETLKDTPAPRLLKTHLPLALLPQTLLDQKVKVVYVARNAKDVAVSYYHFYHMAKVHPEPGTWDSFLEKFMVGEVSYGSWYQHVQEWWELSRTHPVLYLFYEDMKENPKREIQKILEFVGRSLPEETVDFVVQHTSFKEMKKNPMTNYTTVPQEFMDHSISPFMRKGMAGDWKTTFTVAQNERFDADYAEKMAGCSLSFRSEL
B11: ERAP1 (Homo sapiens, UniProt Q9NZ08); chain MVFLPLKWSLATMSFLLSSLLALLTVSTPSWCQSTEASPKRSDGTPFPWNKIRLPEYVIPVHYDLLIHANLTTLTFWGTTKVEITASQPTSTIILHSHHLQISRATLRKGAGERLSEEPLQVLEHPRQEQIALLAPEPLLVGLPYTVVIHYAGNLSETFHGFYKSTYRTKEGELRILASTQFEPTAARMAFPCFDEPAFKASFSIKIRREPRHLAISNMPLVKSVTVAEGLIEDHFDVTVKMSTYLVAFIISDFESVSKITKSGVKVSVYAVPDKINQADYALDAAVTLLEFYEDYFSIPYPLPKQDLAAIPDFQSGAMENWGLTTYRESALLFDAEKSSASSKLGITMTVAHELAHQWFGNLVTMEWWNDLWLNEGFAKFMEFVSVSVTHPELKVGDYFFGKCFDAMEVDALNSSHPVSTPVENPAQIREMFDDVSYDKGACILNMLREYLSADAFKSGIVQYLQKHSYKNTKNEDLWDSMASICPTDGVKGMDGFCSRSQHSSSSSHWHQEGVDVKTMMNTWTLQKGFPLITITVRGRNVHMKQEHYMKGSDGAPDTGYLWHVPLTFITSKSDMVHRFLLKTKTDVLILPEEVEWIKFNVGMNGYYIVHYEDDGWDSLTGLLKGTHTAVSSNDRASLINNAFQLVSIGKLSIEKALDLSLYLKHETEIMPVFQGLNELIPMYKLMEKRDMNEVETQFKAFLIRLLRDLIDKQTWTDEGSVSERMLRSQLLLLACVHNYQPCVQRAEGYFRKWKESNGNLSLPVDVTLAVFAVGAQSTEGWDFLYSKYQFSLSSTEKSQIEFALCRTQNKEKLQWLLDESFKGDKIKTQEFPQILTLIGRNPVGYPLAWQFLRKNWNKLVQKFELGSSSIAHMVMGTTNQFSTRTRLEEVKGFFSSLKENGSQLRCVQQTIETIEENIGWMDKNFDKIRVWLQSEKLEHDPEADATG
Sequence of UniProt Q3L245 (whole entry, looked up): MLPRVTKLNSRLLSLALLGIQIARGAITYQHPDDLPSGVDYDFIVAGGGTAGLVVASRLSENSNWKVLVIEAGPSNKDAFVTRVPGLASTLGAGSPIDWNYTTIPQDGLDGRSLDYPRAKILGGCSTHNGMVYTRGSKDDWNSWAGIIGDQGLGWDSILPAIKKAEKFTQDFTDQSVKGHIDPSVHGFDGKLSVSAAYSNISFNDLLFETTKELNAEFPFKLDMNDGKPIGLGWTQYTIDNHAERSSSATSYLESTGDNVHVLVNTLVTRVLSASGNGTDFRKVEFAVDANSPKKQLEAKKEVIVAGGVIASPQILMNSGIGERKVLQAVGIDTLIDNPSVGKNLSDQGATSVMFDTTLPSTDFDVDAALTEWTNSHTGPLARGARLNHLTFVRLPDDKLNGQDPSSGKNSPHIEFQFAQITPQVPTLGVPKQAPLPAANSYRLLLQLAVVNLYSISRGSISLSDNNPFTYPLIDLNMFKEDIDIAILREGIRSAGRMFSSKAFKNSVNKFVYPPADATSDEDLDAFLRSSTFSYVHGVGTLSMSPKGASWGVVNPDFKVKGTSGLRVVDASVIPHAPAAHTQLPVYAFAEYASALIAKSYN
Sequence of UniProt Q8KN33 (whole entry, looked up): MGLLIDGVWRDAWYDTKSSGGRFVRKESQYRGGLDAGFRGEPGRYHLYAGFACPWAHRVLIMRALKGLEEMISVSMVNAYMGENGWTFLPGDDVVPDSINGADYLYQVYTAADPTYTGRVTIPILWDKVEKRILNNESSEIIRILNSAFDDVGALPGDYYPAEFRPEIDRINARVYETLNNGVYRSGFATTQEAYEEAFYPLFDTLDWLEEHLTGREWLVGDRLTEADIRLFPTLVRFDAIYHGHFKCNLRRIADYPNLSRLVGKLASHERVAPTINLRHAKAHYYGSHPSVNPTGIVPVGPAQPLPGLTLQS

B1 (sacB S173A/S422A)  kcat/Km (OC[C@H]1O[C@@](CO)(O[C@H]2O[C@H](CO)[C@@H](O)[C@H](O)[C@H]2O)[C@@H](O)[C@@H]1O; pH 6.6): 350 M⁻¹ s⁻¹
B2 (GTPBP3 P257H)  kcat/Km (Nc1nc2c(ncn2[C@@H]2O[C@H](COP(=O)(O)OP(=O)(O)OP(=O)(O)O)[C@@H](O)[C@H]2O)c(=O)[nH]1; pH 8, 37 °C, KCl 300 mM): 80.2 M⁻¹ s⁻¹
B3 (ycjS)  kcat/Km (CO[C@@H]1O[C@H](CO)[C@@H](O)C(=O)[C@H]1O; pH 7, 30 °C, added: NADH 0.3 mM): 23400 ± 2200 M⁻¹ s⁻¹
pcpF (Sphingobium chlorophenolicum, UniProt Q8KN33)  kcat/Km (OCCS; pH 6.5, added: GS-TriCH, ascorbic acid 2 mM): 1170 M⁻¹ s⁻¹
alanine aminopeptidase (Neisseria meningitidis, UniProt Q9JYV4)  kcat/Km (N=C(NCCC[C@H](N)C(=O)Nc1ccc2c(CC(N)=O)cc(=O)oc2c1)N[N+](=O)[O-]; pH 7.5, 37 °C): 120000 ± 2000 M⁻¹ s⁻¹
B4 (TcA)  kcat/Km (O=c1[nH]c(=O)c2[nH]cnc2[nH]1; pH 8.3, 37 °C, apparent, added: PRPP 1 mM, MgCl2 12 mM): 30 ± 8 M⁻¹ s⁻¹
pdh1 (Macropsalliota meleagris, UniProt Q3L245)  kcat/Km (CN(C)c1ccc2nc3ccc(N(C)C)c([N+](=O)[O-])c3[s+]c2c1; pH 7.5, 22 °C, apparent): 2500 M⁻¹ s⁻¹
B5 (PRODH2 157-515)  kcat/Km (O=C(O)[C@@H]1C[C@@H](O)CN1; pH 7.5, 25 °C, added: O2): 0.07 ± 0.02 M⁻¹ s⁻¹
B6 (HEM1)  kcat/Km (CC(C)(COP(=O)(O)OP(=O)(O)OC[C@H]1O[C@@H](n2cnc3c(N)ncnc32)[C@H](O)[C@@H]1OP(=O)(O)O)[C@@H](O)C(=O)NCCC(=O)NCCSC(=O)CCC(=O)O; pH 7.4, 30 °C): 1850 M⁻¹ s⁻¹
B7 (PRP43)  kcat/Km (O=c1ccn([C@@H]2O[C@H](COP(=O)(O)OP(=O)(O)OP(=O)(O)O)[C@@H](O)[C@H]2O)c(=O)[nH]1; pH 8): 81500 ± 4200 M⁻¹ s⁻¹
B8 (NahK)  kcat/Km (O=C(O)C/C=C/C(=O)C(=O)O; pH 7.4, 25 °C, sodium phosphate 20 mM, added: MgCl2 5 mM): 5e+06 M⁻¹ s⁻¹
B9 (enzyme)  kcat/Km (O=C1[C@@H](O[C@@H]2O[C@H](CO)[C@@H](O)[C@H](O)[C@H]2O)Oc2ccccc2N1O; pH 7.2, 30 °C): 6860 M⁻¹ s⁻¹
B10 (SULT1A1 I89A)  kcat/Km (C[C@]12CC[C@@H]3c4ccc(O)cc4CC[C@H]3[C@@H]1CC[C@@H]2O; pH 7.2, 25 °C, added: PAPS 0.060–1.5 µM): 750000 M⁻¹ s⁻¹
B11 (ERAP1)  kcat/Km (CC(C)C[C@H](N)C(=O)N[C@@H](CO)C(=O)N[C@@H](CCCNC(=N)N)C(=O)N[C@@H](Cc1c[nH]cn1)C(=O)N[C@@H](Cc1c[nH]cn1)C(=O)N[C@@H](C)C(=O)N[C@@H](Cc1ccccc1)C(=O)N[C@@H](CO)C(=O)N[C@@H](Cc1ccccc1)C(=O)N[C@@H](CCCNC(=N)N)C(=O)O; 25 °C): 230000 ± 80000 M⁻¹ s⁻¹

A few entries again:
B1 (sacB S173A/S422A)  kcat/Km (OC[C@H]1O[C@@](CO)(O[C@H]2O[C@H](CO)[C@@H](O)[C@H](O)[C@H]2O)[C@@H](O)[C@@H]1O; pH 6.6): 350 M⁻¹ s⁻¹
